Published values gathered from unrelated publications.
Each line is one published result; not all experiments were run side by side. “And” joins repeats or separate records; there may be more than shown. ± marks the error that the study gave.
rep main protease: Replicase polyprotein 1ab, main protease (rep, Severe acute respiratory syndrome coronavirus 2, UniProt P0DTD1)
Matrix protein 2 S31N: Matrix protein 2 (Influenza A virus, UniProt P0DOF5, S31N)

With `COc1ccc2ncc(F)c(CC[C@@]3(O)CO[C@@H]4[C@@H](NCc5ccc(Cl)c(Cl)c5)CO[C@@H]43)c2n1` the MIC was 1 µg/mL (Mycobacterium tuberculosis; H37Rv katG deletion).
`O=C(CCCCCCCCCCc1ccc(O)c(O)c1)c1c(O)cccc1O` gave a selectivity index of 1.4 (SARS-CoV-2; HEK293T ACE2, Gamma P.1; baseline: CC50 over EC50).
The Kd of `O=P(O)(O)C(O)(Cc1cccc(-c2cccc3c2oc2ccccc23)c1)P(=O)(O)O` is reported as roughly 560 nM (Tuberculosinyl adenosine transferase (Mycobacterium tuberculosis, UniProt P9WJ61)).
For `CCCC/C=C/C(=O)N[C@@H](Cc1csc2ccccc12)C(=O)N[C@H]1COC(=O)[C@@H]2C[C@@H](C)CN2C(=O)[C@H](C)NC(=O)[C@@H]2CCCCN2C(=O)[C@@H]2CCCN2C1=O`, “viral RNA level” read 0.297 and 0.284 (SARS-CoV-2 Omicron; Huh-7; concentration not given, 3 h, unit not given; baseline: DMSO).
For `O=c1cc(-c2ccc(O)cc2)oc2c([C@@H]3OC[C@H](O)[C@H](O)[C@H]3O)c(O)c([C@@H]3O[C@H](CO)[C@@H](O)[C@H](O)[C@H]3O)c(O)c12`, the inhibition was 52.3% (Replicase polyprotein 1ab, papain-like protease K157A (rep, Severe acute respiratory syndrome coronavirus 2, UniProt P0DTD1, K1720A); enzyme activity, inhibitor; concentration not given, PLpro K157A mutant).
For `COc1ccc(CNC23CC4CC(CC(C4)C2)C3)s1`, the EC50 was 3900 nM (Influenza A virus; A/WSN/33 M2-S31N).
The Ki of `CC[C@H](C)[C@H](NC(=O)[C@H](CCCCN)NC(=O)[C@@H](NC(=O)[C@H](CCC(N)=O)NC(=O)[C@H](CCCNC(=N)N)NC(=O)[C@@H]1CSCC(=O)N[C@H](Cc2ccc(O)cc2)C(=O)N[C@@H](CC(C)C)C(=O)N[C@@H](CCC(N)=O)C(=O)N[C@@H](Cc2ccc(O)cc2)C(=O)N[C@@H](C)C(=O)N[C@@H](C(C)C)C(=O)N[C@@H](CC(C)C)C(=O)N[C@@H](CCCNC(=N)N)C(=O)N[C@@H](Cc2c[nH]cn2)C(=O)N[C@@H](CCCCN)C(=O)N[C@@H](CCCNC(=N)N)C(=O)N[C@@H](CCCNC(=N)N)C(=O)N[C@@H](CCC(=O)O)C(=O)N1)[C@@H](C)CC)C(=O)N[C@@H](Cc1c[nH]c2ccccc12)C(=O)N[C@@H](Cc1ccccc1)C(=O)N[C@@H](CCC(N)=O)C(=O)N[C@@H](CC(N)=O)C(=O)N[C@@H](CCCNC(=N)N)C(=O)N[C@@H](CCCNC(=N)N)C(=O)N[C@@H](CCSC)C(=O)N[C@@H](CCCCN)C(=O)N[C@@H](Cc1c[nH]c2ccccc12)C(=O)N[C@@H](CCCCN)C(=O)N[C@@H](CCCCN)C(N)=O` is reported as 9 nM (rep main protease; enzyme activity, inhibitor).
For `COc1ccc2nccc(CC[C@H]3OC[C@H](NC(=O)c4ccc(C(C)(C)C)cc4)CO3)c2c1`, the MIC was 8 µg/mL (Mycobacterium tuberculosis; H37Rv katG deletion).
`CC(=O)Oc1ccc(CCCCCCCCC(=O)c2c(OC(C)=O)cccc2OC(C)=O)cc1OC(C)=O` has an EC50 of 1500 nM (SARS-CoV-2; viral replication, MTT; HEK293T ACE2, Gamma P.1).
The MIC of `NC(=S)N/N=C/c1ccc(OC(=O)CC2SC(=O)NC2=O)cc1` (stereo not drawn) is reported as 45.4 µM (Mycobacterium tuberculosis; Alamar blue; MDR 210).
`CC1OC(OC2C(OC(=O)C34CCC(C)(C)CC3C3=CCC5C6(C)CCC(OC7OC(CO)C(O)C(O)C7O)C(C)(C)C6CCC5(C)C3(C)CC4O)OCC(O)C2O)C(O)C(O)C1OC1OCC(O)C(OC2OCC(O)C(OC3OCC(O)C(O)C3O)C2O)C1O` (stereo not drawn) gave an IC50 of 1590 nM (SARS-CoV-2; viral infection; Vero, alpha variant B.1.1.7).
With `COc1ccc2nccc(CC[C@H]3OC[C@H](NC(=O)c4ccc(C)cc4)CO3)c2c1` the MIC was greater than 32 µg/mL (Mycobacterium tuberculosis; H37Rv katG deletion).
`CN1CC(=O)N=C1N.C[C@H](CCC(=O)O)[C@H]1CC[C@H]2[C@@H]3CC[C@@H]4C[C@H](O)CC[C@]4(C)[C@H]3CC[C@]12C` gave an EC50 of 12.7 ± 2.72 µg/mL (SARS-CoV-2 Delta variant; virucidal activity; A549-hACE2, B.1.617.2; 72 h post infection, virus pretreated 1 h, 37 °C).
With `COc1ccc2nccc(CC[C@H]3OC[C@H](NC(=O)c4ccc5c(c4)OCCO5)CO3)c2c1` the MIC was greater than 32 µg/mL (Mycobacterium tuberculosis; H37Rv katG deletion).
The ΔTm of `O=C(NC1CCN(c2ncnc3[nH]cnc23)CC1)c1cccc(NS(=O)(=O)c2ccc(C(F)(F)F)cc2)c1` is reported as 5.9 °C (Replicase polyprotein 1ab, NSP14 (rep, Severe acute respiratory syndrome coronavirus 2, UniProt P0DTD1, P6318L); thermal stabilisation).
The MIC of `COc1ccc2ncc(F)c(C[C@H](O)[C@H]3OC[C@H](NCc4ccc(Cl)c(Cl)c4)CO3)c2c1` is reported as 0.125 µg/mL (Mycobacterium tuberculosis; H37Rv katG deletion).
The inhibition of `CC(C)CC(C(=O)N1CC2(CC1C#N)C(=O)Nc1ccccc12)N(C)C(=O)c1cc2c(F)cc(F)c(F)c2[nH]1` (stereo not drawn) is reported as 100% (SARS-CoV-2; viral replication; VeroE6/TMPRSS2, Omicron variants; 0.3 µM).
`Cc1ccc(N2CCN(C)CC2)cc1C(=O)NC1(c2ccc3c4c(cccc24)CC3)CC1` has a Kd of 282 nM and 114 nM (Replicase polyprotein 1a, papain-like protease (Severe acute respiratory syndrome coronavirus 2, UniProt P0DTC1); binding).
For `N=C(N)NCCC[C@H](NC(=O)[C@@H]1CCCN1C(=O)[C@H](N)Cc1ccccc1)C(=O)CCl`, the inhibition was 36% (Severe acute respiratory syndrome coronavirus 2; viral entry, inhibitor; A549-hACE2-TMPRSS2; 50 µM, pseudovirus).
The Kd of `COc1ccc(CNC(C)(C)C23CC4CC(CC(C4)C2)C3)c(O)c1` is reported as greater than 100000 nM (Matrix protein 2 S31N; binding).
`N#CC1(c2ccc3c(N)ncnn23)OC(COP(=O)(O)OP(=O)(O)OP(=O)(O)O)C(O)C1O` (stereo not drawn) has an EC90 of 6450 nM (Severe acute respiratory syndrome coronavirus 2; viral replication, inhibitor; Vero C1008; 48 h).
For `CC1(C)CC(=O)c2c(C(F)(F)F)nn(-c3ccc(C(N)=O)c(N[C@H]4CC[C@H](OC(=O)CN)CC4)c3)c2C1`, the inhibition was 82% (Severe acute respiratory syndrome coronavirus 2; viral replication; 10 µM).
For `COc1ccc2ncc(F)c(CC[C@@]3(O)CO[C@@H]4[C@@H](NCc5ccc(C)cc5)CO[C@@H]43)c2n1`, the MIC was 4 µg/mL (Mycobacterium tuberculosis; H37Rv katG deletion).
For `Ic1ccc(CNC23CC4CC(CC(C4)C2)C3)s1`, the EC50 was 1900 nM (Influenza A virus; A/WSN/33 M2-S31N).
The ΔH of `CC(C)(C)[C@H](NC(=O)NC1(CS(=O)(=O)C(C)(C)C)CCCCC1)C(=O)N1C[C@H]2[C@@H]([C@H]1C(=O)N[C@H](C#N)C[C@@H]1CCNC1=O)C2(C)C` is reported as -1.47 ± 0.01 kcal/mol (Replicase polyprotein 1ab, main protease H41A (rep, Severe acute respiratory syndrome coronavirus 2, UniProt P0DTD1, H3304A); pH 7.2).
The inhibition of `CC[C@H](C)[C@@H]1NC(=O)[C@H](Cc2c[nH]c3ccccc23)NC(=O)[C@H](C)NC(=O)[C@H](CC(N)=O)NC(=O)[C@H](Cc2ccc(O)cc2)NC(=O)CNC(=O)[C@H](Cc2ccc(O)cc2)NC(=O)[C@H](C(C)C)NC(=O)[C@H](C(C)C)NC(=O)CNC(=O)[C@H](C)NC(=O)[C@H](CCCCN)NC(=O)[C@@H](Cc2ccc(O)cc2)NC(=O)CSC[C@@H](C(N)=O)NC(=O)[C@H](CCCNC(=N)N)NC1=O` is reported as greater than 50 µM (SARS-CoV-2 spike pseudotyped lentivirus; pseudovirus neutralization; HEK293T overexpressing ACE2).
`O=C(CCCCCCc1ccc(O)c(O)c1)c1c(O)cccc1O` has a selectivity index of 1.5 (SARS-CoV-2; HEK293T ACE2, Gamma P.1; baseline: CC50 over EC50).
`CC(C)C(=O)OC[C@H]1O[C@@](C#N)(n2ccc(N)nc2=O)[C@H](O)[C@@H]1O` has an EC90 of 3500 ± 1000 nM (SARS-CoV-2 Delta; viral replication; Calu-3).
For `Oc1ccc(CCCCCCCCC(O)c2c(O)cccc2O)cc1O` (stereo not drawn), the selectivity index was 2.7 (SARS-CoV-2; HEK293T ACE2, Delta B.1.617.2; baseline: CC50 over EC50).
`CC(C)C[C@@H]1NC(=O)[C@H](C(C)C)NC(=O)[C@H](C)NC(=O)[C@H](Cc2ccc(O)cc2)NC(=O)[C@H](CCC(N)=O)NC(=O)[C@H](CC(C)C)NC(=O)[C@@H](Cc2ccc(O)cc2)NC(=O)CSC[C@@H](C(N)=O)NC(=O)[C@H](CCC(=O)O)NC(=O)[C@H](CCCNC(=N)N)NC(=O)[C@H](CCCNC(=N)N)NC(=O)[C@H](CCCCN)NC(=O)[C@H](Cc2c[nH]cn2)NC(=O)[C@H](CCCNC(=N)N)NC1=O` has a Ki of 14 nM (rep main protease; enzyme activity, inhibitor).
With `CCCCCCNCc1ccc(Oc2ccc(Cl)cc2Cl)c(O)c1` the MIC was 5 µg/mL (Mycobacterium tuberculosis; V2475).
With `COc1ccc2nccc(CC[C@H]3OC[C@H](NC(=O)c4ccc(Cl)cc4)CO3)c2c1` the MIC was 2 µg/mL (Mycobacterium tuberculosis; H37Rv katG deletion).
`CCCCCCNCc1ccc(Oc2ccc(Cl)cc2O)c(Cl)c1` has an MIC of 5 µg/mL (Mycobacterium tuberculosis; V2475).
The MIC of `COc1ccc2nccc(CC[C@H]3OC[C@H](NCc4ccc(Cl)c(Cl)c4)CO3)c2c1` is reported as 1 µg/mL (Mycobacterium tuberculosis; H37Rv katG deletion).
The MIC of `Oc1cc(CNc2ccccc2)ccc1Oc1ccc(Cl)cc1Cl` is reported as 40 µg/mL (Mycobacterium tuberculosis; V2475).
For `COc1ccc(CNC23CC4C5CC6CC4C(C2)C(C6)C5C3)c(O)c1`, the Kd was greater than 100000 nM (Matrix protein 2 S31N; binding).

A few entries again:
With `COc1ccc2nccc(CC[C@H]3OC[C@H](NC(=O)c4ccc(Cl)cc4)CO3)c2c1` the MIC was 2 µg/mL (Mycobacterium tuberculosis; H37Rv katG deletion).
`CCCCCCNCc1ccc(Oc2ccc(Cl)cc2O)c(Cl)c1` has an MIC of 5 µg/mL (Mycobacterium tuberculosis; V2475).
